{"data": "Experimental data pooled from the literature", "note": "Protocols differ between the studies behind these lines. Values joined by “and” are separate records of one study, mostly repeats; a detail may differ. ± gives the spread as reported."}
{"SMILES": "CCN(C(=O)c1cc(F)ccc1Oc1nncnc1N1CCC2(C1)CN([C@H](CCCN(C)CCOC)C(C)C)C2)C(C)C", "cell line": "SK-HEP1", "assay": "cell growth or viability", "conditions": "7 days", "endpoint": "GI50", "result": "> 10 µM"}
{"SMILES": "Cc1c(Cl)cccc1Nc1ccccc1C(=O)[Se]CC(=O)Nc1cccc(C(F)(F)F)c1", "cell line": "NCI60 prostate subpanel (PC-3, DU-145)", "assay": "cell growth", "conditions": "10 µM, 48 h, one-dose", "endpoint": "mean growth percent", "result": "-79.5%"}
{"SMILES": "C#CCOC(=O)[C@@]1(C)C=C(C(=O)Nc2cccc(C(=O)Nc3ccc(C)c(Nc4nccc(-c5cccnc5)n4)c3)c2)C(=O)CC1", "cell line": "SH-SY5Y MKK7 active", "assay": "western blot, item: phospho-c-Jun Ser73", "conditions": "0.1 µM, unit not given", "scale": "relative to: doxycycline without inhibitor", "endpoint": "phospho-c-Jun level", "result": 0.981}
{"SMILES": "O=C(C[Se]C(=O)c1ccc2ccccc2n1)Nc1cccc(C(F)(F)F)c1", "cell line": "NCI60 breast subpanel mean", "assay": "cell growth", "endpoint": "TGI", "result": "4.52 µM"}
{"SMILES": "CCNc1cc2c(cc1C)C1(c3cc(C)c(NCC)cc3O2)c2ccccc2C(=O)N1N=Cc1c[c-]c(-c2ccccn2)cc1.Cc1c(C)c(-c2ccc(-c3ccccc3)cc2)[c-](C)c1C.[Cl-].[Ir+3]", "cell line": "A549", "assay": "annexin V/PI flow cytometry", "conditions": "2.0×IC50, 24 h", "endpoint": "late apoptotic cells", "result": "88.75 ± 0.12%"}
{"SMILES": "CC(C)c1ccc(N(C)c2ccc3c(c2)OCC[C@H]3CNc2cnccc2C(=O)O)cc1", "cell line": "SNG-M", "assay": "cell viability, CellTiter-Glo", "conditions": "7 days", "endpoint": "IC50", "result": "4.9 µM"}
{"SMILES": "CNc1ncnc2c1ncn2C1OC(CO)C(O)C1O (centres unmarked)", "cell line": "mock-transfected cells", "assay": "TGFα shedding, agonist", "conditions": "100 nM", "scale": "relative to: unstimulated vehicle control", "endpoint": "AP-TGFα release", "result": "0.06% and 0.22% and 0.5%"}
{"SMILES": "Cc1n[nH]c(C)c1CCCOc1cc(C(=O)NCCCCC(NC(=O)CN2CCN(CC(=O)[O-])CCN(CC(=O)[O-])CCN(CC(=O)[O-])CC2)C(=O)NCC2CCC(C(=O)NC(Cc3ccc4ccccc4c3)C(=O)NCCCCC(NC(=O)NC(CCC(=O)O)C(=O)O)C(=O)O)CC2)ccc1F.[68Ga+3] (centres unmarked)", "cell line": "PC-3 (PSMA-negative)", "endpoint": "uptake", "result": "0.82 ± 0.05%"}
{"SMILES": "CO[C@@H]1[C@@H](OC(N)=O)[C@@H](O)[C@H](Oc2ccc3c(O)c(NC(=O)c4ccc(O)c(CC=C(C)C)c4)c(=O)oc3c2C)OC1(C)C", "cell line": "DLD-1 parental", "conditions": "200 µM, replicate 2", "endpoint": "colony count", "result": 0.1}
{"SMILES": "Cc1cccc(-c2cccc(C)n2)n1.Cc1cccc(-c2cccc(C)n2)n1.F[P-](F)(F)(F)(F)F.F[P-](F)(F)(F)(F)F.[Ru+2].c1ccc2c(c1)Cc1cc(-c3nc4c5cccnc5c5ncccc5c4[nH]3)ccc1-2", "cell line": "SK-MEL-28", "assay": "resazurin", "conditions": "dark, 1% O2", "endpoint": "dark EC50 change hypoxia vs normoxia", "result": "no effect"}
{"SMILES": "CN1CCN(C(=O)c2ccc(-c3cc4c(N5CCC[C@H](C(=O)NCc6ccc(OC(F)(F)F)cc6)C5)ncnc4[nH]3)cc2)CC1", "cell line": "NCI-H3122", "assay": "cell growth or viability, MTT", "conditions": "0.0016 µg/mL, 72 h", "endpoint": "inhibition", "result": "9.45%"}
{"SMILES": "CN(C)CCN1CCN(c2ccc3nc(-c4ccc5nc(-c6ccc(C(F)(F)F)cc6)[nH]c5c4)[nH]c3c2)CC1", "cell line": "SNB-19", "assay": "SRB", "conditions": "10 µM, 48 h", "endpoint": "growth percent", "result": "69.6%"}
{"SMILES": "O=C(C[Se]C(=O)c1ccccc1Nc1cccc(C(F)(F)F)c1)Nc1cccc(C(F)(F)F)c1", "cell line": "NCI60 breast subpanel mean", "assay": "cell growth", "endpoint": "TGI", "result": "3.94 µM"}
{"SMILES": "Cn1ncc2cc(-c3cncc(Cl)c3N3CCC4(CCNC4=O)CC3)ccc21", "cell line": "LS174T", "assay": "gene expression, microarray, item: HOXB5 mRNA", "conditions": "concentration not given, 24 h", "scale": "relative to: untreated cells", "endpoint": "log2 fold change", "result": 2.69}
{"SMILES": "CSCC[C@H](NC(=O)[C@H](CCC(N)=O)NC(=O)[C@H](CCCCN)NC(=O)[C@H](CCCNC(=N)N)NC(=O)[C@H](Cc1ccc(O)cc1)NC(=O)[C@H](CCCNC(=N)N)NC(=O)[C@H](CO)NC(=O)[C@H](Cc1ccc(O)cc1)NC(=O)[C@H](CO)NC(=O)[C@H](CC(=O)O)NC(=O)[C@@H](NC(=O)[C@@H](N)Cc1ccccc1)[C@@H](C)O)C(=O)N[C@@H](C)C(=O)N[C@H](C(=O)N[C@@H](CCCCN)C(=O)N[C@@H](CCCCn1cc(C[C@H](NC(=O)CNC(=O)[C@H](CO)NC(=O)[C@H](CCCNC(=N)N)NC(=O)[C@H](CO)NC(=O)[C@H](CC(C)C)NC(=O)[C@H](CC(C)C)NC(=O)CNC(=O)[C@H](C)NC(=O)[C@H](CC(C)C)NC(=O)[C@H](CCCNC(=N)N)NC(=O)[C@H](Cc2c[nH]cn2)NC(=O)[C@@H](NC(=O)[C@@H](N)C(C)C)[C@@H](C)O)C(=O)N[C@H](C(=O)N[C@H](C(=O)N[C@@H](CCCCN)C(=O)N[C@@H](CC(N)=O)C(=O)N[C@@H](CC(N)=O)C(=O)N[C@@H](Cc2ccccc2)C(=O)N[C@H](C(=O)N2CCC[C@H]2C(=O)N[C@H](C(=O)N[C@@H](CC(N)=O)C(=O)N[C@H](C(=O)NCC(=O)N[C@@H](CO)C(=O)N[C@@H](CCCCN)C(=O)N[C@@H](C)C(=O)N[C@@H](Cc2ccccc2)C(N)=O)C(C)C)[C@@H](C)O)C(C)C)C(C)C)C(C)C)nn1)C(=O)N[C@@H](Cc1ccc(O)cc1)C(=O)N[C@@H](CC(C)C)C(=O)N[C@@H](C)C(=O)N[C@@H](C)C(=O)N[C@H](C(=O)N[C@@H](CC(C)C)C(=O)NCC(=O)N[C@@H](CCCCN)C(=O)N[C@@H](CCCNC(=N)N)C(=O)N[C@@H](Cc1ccc(O)cc1)C(=O)N[C@@H](CCCCN)C(=O)N[C@@H](CCC(N)=O)C(=O)N[C@@H](CCCNC(=N)N)C(=O)N[C@H](C(=O)N[C@@H](CCCCN)C(=O)N[C@@H](CC(N)=O)C(=O)N[C@@H](CCCCN)C(N)=O)C(C)C)C(C)C)C(C)C", "cell line": "transfected COS-7 cells", "assay": "cAMP accumulation, antagonist", "conditions": "added: PACAP-27", "endpoint": "pA2", "result": 5.31}
{"SMILES": "CNS(=O)(=O)Nc1nccc(Cc2c(C)c3ccc(Oc4ncccc4F)cc3oc2=O)c1F", "cell line": "NCI-H716", "assay": "cell viability", "conditions": "7 days", "endpoint": "IC50", "result": "0.0254 µM"}
{"SMILES": "COC1=C2CC(C)CC(OC)C(O)C(C)C=C(C)C(OC(N)=O)C(OC)C=CC=C(C)C(=O)NC(=CC1=O)C2=O (centres unmarked)", "cell line": "Rh30", "assay": "ChIP-seq, item: H3K36me3 peak", "conditions": "concentration not given, BARD1 intron chr2:215588800-215611399", "scale": "relative to: untreated control", "endpoint": "log fold change", "result": -0.505}
{"SMILES": "CC1(C)CC[C@@]2(CO)C(=C3C=C[C@@H]4[C@@]5(C)CC[C@H](O)[C@@](C)(CO)[C@@H]5CC[C@@]4(C)[C@]3(C)C[C@@H]2O)C1", "cell line": "HepG2, negative control siRNA", "assay": "Western blot, item: PPAR-α", "conditions": "concentration not given, high dose, unit not given, added: ethanol", "scale": "relative to: β-actin", "endpoint": "protein level", "result": "0.704 and 0.628 and 1.15"}
{"SMILES": "COC(=O)c1cc(NC2=NC(=O)C(=Cc3ccc(N(C)C)cc3)S2)ccc1OC(C)=O", "cell line": "MCF7", "assay": "GC-MS, item: Inosine", "conditions": "1 µM", "scale": "relative to: DMSO", "endpoint": "metabolite level", "result": "0.8 fold change"}
{"SMILES": "O=C(N1CCCC1)n1cc(-c2ccc(-c3ccccc3)cc2)nn1", "cell line": "mouse T-cells", "assay": "N-terminal labelling enrichment, item: Tfg N-terminal peptides", "conditions": "1 nM, 6 h, single tryptic peptide", "scale": "relative to: DMSO", "endpoint": "SILAC ratio", "result": "1.13 and 1.27 and 1.1"}
{"SMILES": "Cc1ncsc1-c1ccc(C(C)NC(=O)C2CC(O)CN2C(=O)C(NC(=O)CCCCCCCCCCN2CCCC(Nc3ncc(Cl)c(Nc4ccccc4S(=O)(=O)C(C)C)n3)C2)C(C)(C)C)cc1 (centres unmarked)", "cell line": "22Rv1", "assay": "RNA-seq, item: ZNF691 mRNA", "conditions": "concentration not given", "scale": "relative to: DMSO", "endpoint": "log2 fold change", "result": -1.8}
{"SMILES": "Cc1cccc(-c2cccc(C)n2)n1.Cc1cccc(-c2cccc(C)n2)n1.F[P-](F)(F)(F)(F)F.F[P-](F)(F)(F)(F)F.[Ru+2].c1ccc2c(-c3nc4c5cccnc5c5ncccc5c4[nH]3)c3ccccc3cc2c1", "cell line": "SK-MEL-28", "assay": "cell viability", "conditions": "1% O2, added: blue light 453 nm, 100 J/cm2", "endpoint": "EC50", "result": "36.4 ± 1 µM"}
{"SMILES": "CSC(=S)N/N=C(\\C)c1ccc(Nc2nnc(-c3ccc(Cl)cc3)c3ccccc23)cc1", "cell line": "MCF7", "assay": "cell growth or viability, MTT", "conditions": "0.312 µM, 24 h", "endpoint": "viability", "result": "23.9%"}
{"SMILES": "CN1CCCNC(=O)c2cccc(c2)C(=O)NCCCN(C)CCCNc2cccc3c2C(=O)c2cccc(c2C3=O)NCCC1", "cell line": "SAS", "assay": "RNA-Seq, item: TLCD1 mRNA", "conditions": "1 µM, 6 h", "scale": "relative to: untreated cells", "endpoint": "log2 fold change", "result": -0.866}
{"SMILES": "CC(C)[C@H](NC(=O)[C@H](CCCNC(=N)N)NC(=O)C[C@@H](N)CCCN)C(=O)N[C@@H](Cc1c[nH]cn1)C(=O)N[C@@H](Cc1ccccc1)C(N)=O", "cell line": "HeLa cells", "assay": "calcium release, Fluo-4 imaging", "conditions": "100 µM", "endpoint": "responder cells", "result": "0%"}
{"SMILES": "CC(C)Cc1ccc(C(C)C(=O)[Se]CC(=O)Nc2cccc(C(F)(F)F)c2)cc1 (centres unmarked)", "cell line": "NCI60 breast subpanel mean", "assay": "cell growth", "endpoint": "TGI", "result": "4.33 µM"}
{"SMILES": "CCN(CC)CC(=O)Nc1cccc(-n2cc(-c3ccc4ccc(-c5cn(-c6cccc(NC(=O)CN(CC)CC)c6)nn5)cc4c3)nn2)c1", "cell line": "RCC4", "assay": "PCR angiogenesis array, item: NRP1", "conditions": "5 x IC50, 2 h, normoxia", "scale": "relative to: untreated", "endpoint": "fold regulation", "result": 1.19}
{"SMILES": "Cc1cc(NC2CCN(C)CC2)ccc1-c1cc2c(N3CCC[C@H](C(=O)N[C@H](C)c4ccccc4)C3)ncnc2[nH]1", "cell line": "NCI-H3122", "assay": "cell growth or viability, MTT", "conditions": "0.008 µg/mL, 72 h", "endpoint": "inhibition", "result": "4.92%"}
{"SMILES": "COc1ccccc1-c1ccncc1C(=O)Nc1nnc(OCc2ccc(Cl)cc2)s1", "cell line": "MDA-MB-231", "conditions": "6 µM, mean of 3 replicates", "scale": "relative to: untreated", "endpoint": "colony survival", "result": "84.2%"}
{"note": "Repeated from above:"}
{"SMILES": "O=C(N1CCCC1)n1cc(-c2ccc(-c3ccccc3)cc2)nn1", "cell line": "mouse T-cells", "assay": "N-terminal labelling enrichment, item: Tfg N-terminal peptides", "conditions": "1 nM, 6 h, single tryptic peptide", "scale": "relative to: DMSO", "endpoint": "SILAC ratio", "result": "1.13 and 1.27 and 1.1"}
{"SMILES": "Cc1ncsc1-c1ccc(C(C)NC(=O)C2CC(O)CN2C(=O)C(NC(=O)CCCCCCCCCCN2CCCC(Nc3ncc(Cl)c(Nc4ccccc4S(=O)(=O)C(C)C)n3)C2)C(C)(C)C)cc1 (centres unmarked)", "cell line": "22Rv1", "assay": "RNA-seq, item: ZNF691 mRNA", "conditions": "concentration not given", "scale": "relative to: DMSO", "endpoint": "log2 fold change", "result": -1.8}
{"SMILES": "Cc1cccc(-c2cccc(C)n2)n1.Cc1cccc(-c2cccc(C)n2)n1.F[P-](F)(F)(F)(F)F.F[P-](F)(F)(F)(F)F.[Ru+2].c1ccc2c(-c3nc4c5cccnc5c5ncccc5c4[nH]3)c3ccccc3cc2c1", "cell line": "SK-MEL-28", "assay": "cell viability", "conditions": "1% O2, added: blue light 453 nm, 100 J/cm2", "endpoint": "EC50", "result": "36.4 ± 1 µM"}
